Measurements pooled from the literature.
Each numbered part is a random draw from the data of one study; scales do not carry over between parts.

Block 1 — technique: aptamer microarray, sandwich; molecule type: DNA with 2'F-ANA; matrix: in vitro; concentration: 200 nM; added: Cy3 exosite-II aptamer, 400 nM; reading: higher = stronger binding; oligonucleotide: GGTTGGTGTGGTTGG
Target: Prothrombin, mature alpha-thrombin (F2, Homo sapiens, UniProt P00734)
Setting: whole 15-mer aptamer, many near background
Modification | mean fluorescence intensity [a.u.]
2'F-ANA at 2 9 10 11 12 14 | 104
2'F-ANA at 3 4 8 15 | 792
2'F-ANA at 2 3 5 6 7 8 9 11 14 | 52.7
2'F-ANA at 1 2 6 7 8 11 13 14 15 | 94.2
2'F-ANA at 2 4 6 7 10 14 | 66.1
2'F-ANA at 1 3 4 6 7 9 11 14 | 69.4
2'F-ANA at 1 3 5 7 9 10 11 12 | 55.8
2'F-ANA at 1 4 5 6 10 11 14 15 | 76.3
2'F-ANA at 1 6 8 9 10 11 13 14 15 | 52.2
2'F-ANA at 3 4 5 8 10 11 13 14 | 68
2'F-ANA at 2 3 10 13 15 | 340
2'F-ANA at 2 5 10 11 13 14 | 44.9
2'F-ANA at 2 3 4 5 6 11 13 | 167
2'F-ANA at 1 3 4 6 8 9 11 13 15 | 153
2'F-ANA at 1 3 4 5 7 9 10 11 | 46.4
2'F-ANA at 1 2 3 7 9 10 11 13 14 | 55.2
2'F-ANA at 1 4 5 6 9 13 14 15 | 49
2'F-ANA at 2 4 5 7 8 12 | 192
2'F-ANA at 1 2 10 11 13 | 53.7
2'F-ANA at 2 3 5 6 11 13 14 15 | 50.1
2'F-ANA at 1 2 3 4 6 7 8 9 10 11 12 13 15 | 132

Block 2 — technique: protein binding microarray; molecule type: double-stranded DNA, one strand shown; matrix: in vitro; concentration: not given; reference: not given; reading: higher = stronger binding
Target: Histone acetyltransferase KAT6A, winged helix 2, GST fusion (KAT6A, Homo sapiens, UniProt Q92794, residues 85-181)
Setting: 8-mer, flanks averaged, mean of 2 arrays, mostly near background
Construct (chain): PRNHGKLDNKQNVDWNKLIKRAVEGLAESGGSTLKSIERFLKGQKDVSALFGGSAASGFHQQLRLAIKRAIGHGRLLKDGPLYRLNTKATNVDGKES
Oligonucleotide | E-score
ATTTTATG | 0.0539
ATGCAAGA | 0.0349
CCAGGCCC | 0.0459
ACCCCTCC | -0.0194
CCTTTCGC | 0.0155
AGGGCCAC | 0.0655
CGTAACGC | 0.0297
TTGAACAA | 0.0476
CGTTTATA | 0.0394
ATGGCTTG | -0.131
GAGAATCC | 0.158
AGCCGACT | 0.0625
GGTGGATA | 0.0956
CCTTTAGA | -0.154
AGATAGAA | -0.102
ACGCGCCG | 0.0572
CTTGAAGA | -0.0735
TCACCTCA | -0.013

Block 3 — technique: RNA Bind-n-Seq; molecule type: RNA; matrix: in vitro; concentration: 365 nM; reference: no-protein control; reading: higher = stronger binding
Target: RNA binding protein fox-1 homolog 2, RRM domain, GST-SBP tag (RBFOX2, Homo sapiens, UniProt O43251-10, residues 100-194)
Setting: natural RNA segment, single round, ends assumed
Shared flanks, not repeated: GGGAGUUCUACAGUCCGACGAUC … UGGAAUUCUCGGGUGCCAA
Target sequence (chain): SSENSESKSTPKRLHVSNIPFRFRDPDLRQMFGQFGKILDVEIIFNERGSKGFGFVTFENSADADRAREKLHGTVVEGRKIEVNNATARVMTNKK
Oligonucleotide | RBNS enrichment (R)
CCUGUGCACUUCUAGAAUCCCAGCAGCCAAGAGCCGUUGGGGCAGGAGGGCCUGUGGUGACCUACUGCAUUGACCCACUCUGCCCCCGAGUGAACCGUGGAGCAGGCAGG | 0.264
CCAGGGCAGAGCCUCUCCUUGUACUUUGGCAGCCAUAGAAAGCGUGCUCAUUUUCUGUUUUCCUGUGUUAGGAAAAAACCACCUGUUUUCCAAGGGGAGAGGGCGGGGCC | 0.824
UUCUCAGCAGGGCUGAUGCUGCCCAAGAUAAGUAUAUCUGUCCACAUUAGUCAUUUUAGUCGAUUCCAACAGGUGAGACUUGCUUUCUACAAAGCAUCCCUUAGAAGUCC | 0.283
GGUCCUUGGGCCUGCAGUCCCCUCAUACUCACCCUUCACCCAACAUAUUUUCCGGUGCUGAUAUGUUUCCAGACUCCAGCGCAACCUGGGGUGCUCUCCAGACCCGUGCA | 0.72
CUUACUAAUGAUUCAUAAUGUGAUCUUGAGAAAUGUGUUUAAGCUUUCUGAGUCUUAACCUCCUUGUCUCUAAAAUGGGCAAUUAAAACAAUCUUCAAGAGCCCUGUAAG | 0.286
GAAAGUUCCACUAAACGGUAUUUGCUCUUGUGAUAUGUGGCACAUUGUGAUAUUUUCUUAGUCUGUUCUGUUUUAUUUAAAAAAUAAAACUGCUGAUCAAGACAAGUGAA | 0.315
AGCCCCGAAGCUGCCCCCUCCCCUUUUUGUAUAAUUUAAUAAAGAAACGGUCGCGCUUCUGUUUUUACCCGUCUCCUGCUUUCCCGCAGUCCGGUCAGUGCAUGAAAGGG | 1.84
GACCUUGUACAGUCUGCUUGCUGGCUCUGAAAGCUGGGGUUGGGGGACAGAGUCUCAAGCCCUUAAUUUAUUUUAGCAGCUGUGUUUCUGUGACCCUGGUGUGACUAAGC | 0.562
CAGCCUCUCUCUGCCUCUGGCCCCCAAGUCACCAGGCUGCACACACACGUGGUCGGUCACAUUGCCCUGCCUUACCUCCCAGGGGCCAACCCCUCACUGGUCUUGCAUGA | 1.6
CACCUUACCUUGUCAUGCCACCCCAGGAGUAGAAGCUGGGUAAGGCCCCAUCAUCCUGACCAUCUCUGUUCAUAUGCCCAAGGUGCUAGAAUUAGCUUAGGAGAGAUGCA | 0.92
ACUAAAUAUAUAACAAGCUGUGUUUUCCUAAGCUGAGAUCUGUUGAAUAAUGUUUACAUUCGUCCCCCGGGGAAAUGUAUGCUCAGCCACCAUUCAAGAGAUGACUGAGA | 0.362
GUGCACAUUUGUGAUCAGCAUUGUGACUUGGAGAUAAUAAAAUUUAGACUGUAGACUUGACUCUGUGGCCAGUUAUUGUGUGUCUUGAUUUGGGAGGGAAGGAAGACUAA | 1.61

Block 4 — technique: universal PBM; molecule type: double-stranded DNA, one strand shown; matrix: in vitro; concentration: 600 nM; reading: higher = stronger binding
Target: Sal-like protein 4, full length isoform A (SALL4, Homo sapiens, UniProt Q9UJQ4, residues 1-1053)
Sequence of UniProt Q9UJQ4 (whole entry, looked up): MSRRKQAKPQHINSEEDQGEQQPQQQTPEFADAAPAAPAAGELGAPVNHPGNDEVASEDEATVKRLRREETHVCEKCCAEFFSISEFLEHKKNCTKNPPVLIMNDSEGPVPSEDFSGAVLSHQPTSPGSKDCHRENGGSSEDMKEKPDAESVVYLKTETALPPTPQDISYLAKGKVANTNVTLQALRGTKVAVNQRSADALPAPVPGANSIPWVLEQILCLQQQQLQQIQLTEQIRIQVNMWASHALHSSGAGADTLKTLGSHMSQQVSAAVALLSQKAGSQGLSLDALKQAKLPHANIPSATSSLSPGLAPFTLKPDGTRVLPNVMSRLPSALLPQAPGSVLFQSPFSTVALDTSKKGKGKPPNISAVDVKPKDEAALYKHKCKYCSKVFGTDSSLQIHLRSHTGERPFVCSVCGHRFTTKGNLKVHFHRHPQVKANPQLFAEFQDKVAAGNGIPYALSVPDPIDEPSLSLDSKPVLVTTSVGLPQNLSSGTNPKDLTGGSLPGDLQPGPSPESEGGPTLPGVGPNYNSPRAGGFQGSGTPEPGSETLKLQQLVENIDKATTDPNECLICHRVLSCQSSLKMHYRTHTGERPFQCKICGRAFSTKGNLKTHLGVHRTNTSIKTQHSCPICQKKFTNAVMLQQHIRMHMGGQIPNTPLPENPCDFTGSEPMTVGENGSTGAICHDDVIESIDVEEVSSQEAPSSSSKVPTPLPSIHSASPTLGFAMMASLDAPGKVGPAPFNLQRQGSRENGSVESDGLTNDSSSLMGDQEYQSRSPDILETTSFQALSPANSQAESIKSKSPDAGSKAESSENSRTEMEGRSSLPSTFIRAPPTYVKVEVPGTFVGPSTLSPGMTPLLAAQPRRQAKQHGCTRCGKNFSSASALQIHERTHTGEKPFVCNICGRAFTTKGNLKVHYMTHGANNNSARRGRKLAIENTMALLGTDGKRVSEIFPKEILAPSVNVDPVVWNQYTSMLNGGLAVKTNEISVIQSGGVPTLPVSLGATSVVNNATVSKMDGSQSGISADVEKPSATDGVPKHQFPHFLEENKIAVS
Setting: 8-mer, flanks averaged, mean of replicates
Oligonucleotide | E-score
AAGGTCAC | -0.196
CCATAACC | 0.136
GACCCCTC | -0.268
CCTTGTGA | -0.0195
ACCTAGCC | -0.193
GCCAACGA | -0.0726
GCGCCAAC | -0.151
CCGGACGC | -0.318
CGACTACG | -0.0383
ACGCCACG | -0.247
ATCGTCTA | -0.00749
AGCTGGTG | -0.312
TAACAAGA | 0.249
GCTCAAAA | 0.0664
CTAGGCAG | -0.211
GATGCGAC | -0.149
GGGACTAC | -0.0414
AACTTCAA | 0.191
ATAGCCAC | -0.0188
AGACTAGA | -0.0258
CCCTGCGG | -0.395
GCGGCCAA | -0.286
CCGTCGCG | -0.325
GGCACCCA | -0.224
ATGATCTG | 0.135

For quick reference, copied from above (block 4):
Oligonucleotide | E-score
TAACAAGA | 0.249
GCTCAAAA | 0.0664
CTAGGCAG | -0.211
GATGCGAC | -0.149
GGGACTAC | -0.0414
